Results of several laboratories.
Numbered parts are unrelated; each lists some results of a single study. Substitutions count along the parent as printed.

Set 1 — method: EMSA with sequencing; form: double-stranded DNA, one strand shown; medium: in vitro; concentration: 10 and 20 nM; baseline: negative control set to 0; direction: higher = stronger binding; endpoint: normalised bound fraction
Target: Hepatocyte nuclear factor 3-alpha (Foxa1, Mus musculus, UniProt P35582, residues 1-468, full length assumed)
Setting: whole designed probe, mean of two concentrations, ends assumed
Constant ends, left off below: GTGAGCGGTGCCCATTGATGGGGAAC … TTTCACTGGGATCGTGGGGAC
Residues (chain): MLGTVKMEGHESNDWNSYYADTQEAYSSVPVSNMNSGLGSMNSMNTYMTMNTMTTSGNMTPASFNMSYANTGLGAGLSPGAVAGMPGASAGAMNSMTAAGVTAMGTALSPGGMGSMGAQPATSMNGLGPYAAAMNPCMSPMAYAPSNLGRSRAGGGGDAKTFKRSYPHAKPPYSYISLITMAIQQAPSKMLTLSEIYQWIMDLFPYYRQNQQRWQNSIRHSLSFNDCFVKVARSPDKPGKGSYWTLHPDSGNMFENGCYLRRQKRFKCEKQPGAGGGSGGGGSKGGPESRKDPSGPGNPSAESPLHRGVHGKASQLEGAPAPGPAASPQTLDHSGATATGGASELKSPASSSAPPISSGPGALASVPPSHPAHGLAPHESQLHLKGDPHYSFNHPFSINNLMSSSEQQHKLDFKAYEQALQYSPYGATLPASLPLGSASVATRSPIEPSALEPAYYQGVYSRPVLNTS
Sequence = AATCCAGCTACCTATCTTCAGTTCCTTGGCCTTCAGCTGGCAGTGAAACAGACACATCAGCTTTAAGACTGGCAGCCAAATAGTTAACGATCTGTAAACATACATAGAGAGTTCCTATTACGCAAGGTTCAAACAGACTGGATGAAAGCCCTTCCATAAAGAACCCTTTAGGTGATGATGCTAAAATTATTTT; result = 0.272 ratio
Sequence = ATCTTACCCTTGCTGGGAGTAAACAAAGTTATAAACAGTTGTTTTAAAAAAATAGTTGGTTTCAGATGAAAAATTTCTGTATTCAATTTGTCTAGAGTACCTAGAATGCCACGGTAGCACTTCTCCCCCAGGGAAATATGTTGGACATTTCTGTTTCAGTGTACCGCCTGTCACTAATGCCATGGAAACCCAG; result = 0.117 ratio
Sequence = CATTAGAGTCAAAGTTGTTAAGGGGAGCTAGTCATAGCTACCACGTGGCCAGGCATGTGGAACCAGACACCAGGCACACATCATGTAACATCATATTTACTTTAAATAATGCTGACAACCATGAATCATCAGACACACTACTTGAGATATATAGAATAACATTATTACCCAGTAAGTATGTGAACATTCCGAT; result = 0.314 ratio
Sequence = ATCTTCCCCCTCTTCCTTGCCCCACCAGCTCACCTACGGGGGTTATTTGCACAAAGGAAAATAAATAAAGCCGGCATTCGTTAACGCAGTTCACGCGCATACTGCTGTTTGCTCTGCATGAATCATGGTCCTTACGCGACGCCAGGCTCCGGGAGAGCAAAGCACCGTGTCAGGCGCATGATCCGGGCTCGCC; result = 0.393 ratio
Sequence = ATCTTCCCCCTCCTGTCTCCCTCACCAGCTCACCTTCCCGGGTTATTTGCAGATAGGAAAATAAATAAAGCCGGCATTCGTTAACCCTCTTCTGGCGCAAACTGCTGTTTGCTCTGGATGAATCATGGTCCTTTGGCGACGCCAGGCTCCGGGAGAGCAAAGCACCGTGTCAGGGCCATGATCCGGGGTGGCC; result = 0.33 ratio

Set 2 — method: protein-binding microarray; form: double-stranded DNA, one strand shown; medium: in vitro; concentration: 0.8 µM; setting: whole 60-bp probe, no competitor; direction: higher = stronger binding; endpoint: fluorescence intensity; constant ends, left off below: … GTCTTGATTCGCTTGACGCTGCTG
Target: Centromere-binding protein 1, full length, N-terminal tag (CBF1, Saccharomyces cerevisiae, UniProt P17106, residues 1-351)
UniProt P17106, sequence (whole entry, looked up): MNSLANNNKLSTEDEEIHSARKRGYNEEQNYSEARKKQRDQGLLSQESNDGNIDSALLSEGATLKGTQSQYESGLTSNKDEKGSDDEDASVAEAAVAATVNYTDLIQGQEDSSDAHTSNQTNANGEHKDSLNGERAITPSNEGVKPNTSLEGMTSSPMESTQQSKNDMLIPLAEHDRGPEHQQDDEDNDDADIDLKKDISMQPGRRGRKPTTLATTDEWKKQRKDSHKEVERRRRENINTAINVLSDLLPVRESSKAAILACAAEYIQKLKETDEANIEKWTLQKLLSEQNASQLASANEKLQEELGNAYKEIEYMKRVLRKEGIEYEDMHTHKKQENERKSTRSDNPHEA
Sequence = CTAGGTTTATATATTCACGAGTTTCCTACTTCATTC; result = 572 a.u.
Sequence = CTAGTCGACATGGATGACGAAGAATGGAGATCTTTC; result = 508 a.u.
Sequence = TGTACGAAGCTATAAAACGTGATTATAGTAGTTAGG; result = 1540 a.u.
Sequence = GAATGTCTGCTACATATCGTGAGGTACGAATATTAG; result = 514 a.u.
Sequence = GAAAATAGGAAACGTGACGGCAGAAACGCATTCTAG; result = 2920 a.u.
Sequence = CTAATTTAATAGTTCCACGTGGACGTGTTATTTTTC; result = 4170 a.u.
Sequence = GAACAAACTTCTGGTCACATGAGTTGAACAGAATAG; result = 3230 a.u.
Sequence = CTAGCTCCCTTTTCTGATCTGATGTTCTCACGCTTC; result = 514 a.u.
Sequence = GAAAGCGGCTTACATCAGACATCTTTTCTCGAATAG; result = 506 a.u.
Sequence = GAAAAACGTCAACACCACCTCTACATTTCTTTTTAG; result = 498 a.u.
Sequence = CTAAAAGAGCGCAACCACGCGTATATTCCGGGCTTC; result = 500 a.u.
Sequence = TGTACGAAGCTATTCCTCGTGTCTATAGTAGTTAGG; result = 564 a.u.
Sequence = GAAGCTGCATGAGCATCGGTGACGGTGATTTCATAG; result = 508 a.u.

Set 3 — method: protein-binding microarray; form: double-stranded DNA, one strand shown; medium: in vitro; concentration: 2540 nM top; setting: 60-bp whole probe; together with: salmon DNA 0.4 mg/ml; baseline: random background probes; direction: higher = stronger binding; endpoint: fitted relative affinity; constant ends, left off below: GCCTAGCAC … GTCTTGATTCGCTTGACGCTGCTG
Target: Interferon regulatory factor 3, full length, phosphomimetic (IRF3, Homo sapiens, UniProt Q14653, residues 1-427, S386D/S396D/S398D/S402D/T404D/S405D)
Residues (chain): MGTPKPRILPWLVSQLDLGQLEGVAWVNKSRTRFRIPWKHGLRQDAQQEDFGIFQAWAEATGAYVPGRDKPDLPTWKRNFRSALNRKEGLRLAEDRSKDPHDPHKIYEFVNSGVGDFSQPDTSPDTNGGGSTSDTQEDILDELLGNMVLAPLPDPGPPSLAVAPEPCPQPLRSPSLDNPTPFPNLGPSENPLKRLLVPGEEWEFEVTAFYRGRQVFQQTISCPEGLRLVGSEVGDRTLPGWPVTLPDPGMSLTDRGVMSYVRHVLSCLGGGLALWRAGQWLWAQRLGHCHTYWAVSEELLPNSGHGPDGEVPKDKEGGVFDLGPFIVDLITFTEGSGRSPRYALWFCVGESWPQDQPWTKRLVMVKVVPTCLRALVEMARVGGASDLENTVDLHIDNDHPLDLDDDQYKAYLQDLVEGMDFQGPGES
Sequence = GACGGTTTCGGACTGGGGTCGTGCTAG; result = 4.41 z-score
Sequence = GACGGACTAGGGACTGGGGACGTGCTA; result = -0.784 z-score
Sequence = CTAGAACTGAGTCTCGATTAGTGCTAG; result = -0.29 z-score
Sequence = GACGGTATCGACTATCGGAACGTGCTA; result = 1 z-score
Sequence = GTATATACACTTATGACTTTGTGCTAG; result = 0.355 z-score
Sequence = GCCGGTCTCGGTCTCGGGACGTGCTAG; result = 2.2 z-score
Sequence = AAATTCTGATATAATTCAAAGTGCTAG; result = 0.797 z-score
Sequence = TTAGGCTTCGGTTCCGGTTAGTGCTAG; result = 1.87 z-score
Sequence = TTAGGTCTCGGTATCGGTTCGTGCTAG; result = 3.14 z-score
Sequence = GACAAACTGGGGACTGGAGACGTGCTA; result = -0.594 z-score
Sequence = ATAGATTTCAGACTGGATTAGTGCTAG; result = 0.629 z-score
Sequence = GACGGACAGGACTTTCGGGACGTGCTA; result = 0.262 z-score
Sequence = GAACTTCTGCATTACAGCTAGTGCTAG; result = 0.109 z-score
Sequence = TGAGGTATCGGGTATCGGTTAGTGCTA; result = 1.59 z-score
Sequence = TTAGAACTGGTGACTGGATTAGTGCTA; result = -0.6 z-score

Set 4 — method: RNA Bind-n-Seq; form: RNA; medium: in vitro; concentration: 200 nM; setting: whole 134-nt RNA, ends assumed; together with: 150 mM LiCl; baseline: input library; direction: higher = stronger binding; endpoint: log2 enrichment; all molecules: 7-deaza-guanosine replaces G
Target: Fragile X messenger ribonucleoprotein 1, C-terminal low-complexity region (Fmr1, Mus musculus, UniProt P35922)
Constant ends, left off below: GGGAGUUCUACAGUCCGACGAUC … UGGAAUUCUCGGGUGUCAAGG
Sequence = UGUGCUACACAUCGUAUGUACCGAAUCGGGGAAAAAAAGGAAAAAAAGGGGAAAAAAAGGGGAAAGUAUUAUGUUACGCCGUUCGGAUCU; result = 0.491
Sequence = AGUCCUGUGCUACACAUCGUAUGUACCGAAUCGGGCCCCGGGGCCCCGGGCCCCGGGAAAGUAUUAUGUUACGCCGUUCGGAUCUGCACU; result = -1.04
Sequence = GUCCUGUGCUACACAUCGUAUGUACCGAAUCGGGGUUUUUUUGGGGAGGGGUUUGGGGAAAGUAUUAUGUUACGCCGUUCGGAUCUGCAC; result = -0.266
Sequence = UCAAGUCCUGUGCUACACAUCGUAUGUACCGAAUCGGGCCGGCCGGGGCCGGGGAAAGUAUUAUGUUACGCCGUUCGGAUCUGCACUUCC; result = -0.26
Sequence = CUCAAGUCCUGUGCUACACAUCGUAUGUACCGAAUCGGGAGGGGAGGGAGGGGAAAGUAUUAUGUUACGCCGUUCGGAUCUGCACUUCCA; result = -0.428
Sequence = UUUUAAAGUGUUCUCCACCACACUUGGGCAUUUAUCUGUUUCUUUAAAUGGCCUUCUCUGUUUCUUGUUUGCAGGCAGCUAUCAAUGGUG; result = 1.34

Set 5 — method: aptamer microarray, sandwich; form: DNA with 2'F-ANA; medium: in vitro; concentration: 200 nM; together with: Cy3 exosite-II aptamer, 400 nM; direction: higher = stronger binding; endpoint: mean fluorescence intensity; sequence: GGTTGGTGTGGTTGG
Target: Prothrombin, mature alpha-thrombin (F2, Homo sapiens, UniProt P00734)
Setting: whole 15-mer aptamer, many near background
Modification = 2'F-ANA at 1 4 7 8 9 10 11 12 15; result = 57.4 a.u.
Modification = 2'F-ANA at 1 4 5 7 8 9 10 13 14; result = 49.3 a.u.
Modification = 2'F-ANA at 4 6 8 9 10 11 12 13; result = 72.2 a.u.
Modification = 2'F-ANA at 1 2 8 10 11 12; result = 60.7 a.u.
Modification = 2'F-ANA at 1 3 7 9 12; result = 563 a.u.
Modification = 2'F-ANA at 2 6 7 8 10 13 14 15; result = 83.9 a.u.
Modification = 2'F-ANA at 1 2 3 5 8 9 10 11 12 13 15; result = 66.4 a.u.
Modification = 2'F-ANA at 7 9 11 12 13 14 15; result = 229 a.u.
Modification = 2'F-ANA at 1 2 3 12 15; result = 476 a.u.
Modification = 2'F-ANA at 2 4 6 7 11 12 13 15; result = 292 a.u.
Modification = 2'F-ANA at 1 2 3 5 6 7 9 10 11 15; result = 84 a.u.
Modification = 2'F-ANA at 3 4 8 9 10 11 13 14 15; result = 171 a.u.
Modification = 2'F-ANA at 3 4 9 10 11 13; result = 257 a.u.
Modification = 2'F-ANA at 5 7 8 9 11 12 13 14; result = 53.8 a.u.

Set 6 — target: CCND2, cyclin fold, Cln2 fusion (human); method: yeast growth competition, sequencing; medium: yeast; setting: weak parent motif; baseline: not given; direction: higher = stronger binding; endpoint: normalised enrichment score
Starting sequence: RBL1 docking peptide (human); GSAKRRLFGEDPP; partner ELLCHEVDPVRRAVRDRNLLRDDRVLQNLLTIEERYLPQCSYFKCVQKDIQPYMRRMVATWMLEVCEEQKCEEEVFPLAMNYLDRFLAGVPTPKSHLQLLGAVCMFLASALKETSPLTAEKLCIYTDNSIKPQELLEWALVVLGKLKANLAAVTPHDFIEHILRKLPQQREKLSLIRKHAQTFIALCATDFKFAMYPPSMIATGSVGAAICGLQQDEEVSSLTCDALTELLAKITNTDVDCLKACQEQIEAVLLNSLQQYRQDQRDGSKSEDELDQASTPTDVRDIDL
Variant = GSAKRPLFGEDPP [R6P]; result = 0.0316
Variant = GSAKRRMFGEDPP [L7M]; result = 0.123
Variant = FSAKRRLFGEDPP [G1F]; result = 0.709
Variant = GSAKRRLFGEWPP [D11W]; result = 0.45
Variant = GSAKRHLFGEDPP [R6H]; result = 0.61
Variant = GSAKVRLFGEDPP [R5V]; result = -0.0673
Variant = GSAKRRLFGEDPY [P13Y]; result = 0.0361
Variant = GSAERRLFGEDPP [K4E]; result = -0.262
Variant = GPAKRRLFGEDPP [S2P]; result = 0.407
Variant = GDAKRRLFGEDPP [S2D]; result = -0.2
Variant = GSAKRRLFKEDPP [G9K]; result = 0.156
Variant = GSAKRRCFGEDPP [L7C]; result = 0.53
Variant = GSAKRRLFGEMPP [D11M]; result = 0.16
